Results of several laboratories.
A part holds a random share of what one study measured. Positions count from the first letter of the parent shown.

Study 1
Target: ABI1, truncated, D143A, DHFR fusion (Arabidopsis thaliana)
Technique: DHFR PCA, deep sequencing
Medium: yeast
Notes: methotrexate growth selection, single substitutions
Together with: (+)-ABA 200 µM
Baseline: wild-type fitted maximum
Reading: higher = stronger binding
Starting sequence: PYL1, truncated, DHFR fusion (Arabidopsis thaliana); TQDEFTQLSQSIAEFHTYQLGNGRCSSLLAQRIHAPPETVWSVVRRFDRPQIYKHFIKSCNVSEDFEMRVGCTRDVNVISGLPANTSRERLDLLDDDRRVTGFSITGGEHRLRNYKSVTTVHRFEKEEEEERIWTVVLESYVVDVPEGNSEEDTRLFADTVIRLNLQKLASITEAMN
| Change | relative binding score |
| --- | --- |
| S27C | 74.2% |
| T73I | 108% |
| T106G | 38.3% |
| L91W | 54.4% |
| K126E | 109% |
| T17P | 42.8% |
| L8A | 80% |
| E14D | 96.2% |
| T106C | 103% |
| C72Y | 86.4% |
| K116I | 40.3% |
| K54D | 4.99% |
| R24P | 41.9% |
| V143P | -7.1% |
| S9D | 100% |
| V142F | 70.8% |
| E131M | 108% |
| S150G | 83.7% |

Study 2
Target: Prothrombin, mature alpha-thrombin (F2, Homo sapiens, UniProt P00734)
Technique: aptamer microarray, sandwich
Form: DNA with 2'F-ANA
Medium: in vitro
Tested at: 200 nM
Notes: whole 15-mer aptamer, many near background
Together with: Cy3 exosite-II aptamer, 400 nM
Reading: higher = stronger binding
Strand: GGTTGGTGTGGTTGG
| Modification | mean fluorescence intensity [a.u.] |
| --- | --- |
| 2'F-ANA at 2 7 10 11 13 | 132 |
| 2'F-ANA at 1 3 6 9 10 11 13 14 | 61.5 |
| 2'F-ANA at 6 13 14 15 | 164 |
| 2'F-ANA at 1 2 3 4 7 8 9 11 13 15 | 127 |
| 2'F-ANA at 1 3 4 5 7 9 12 15 | 115 |
| 2'F-ANA at 1 2 5 7 8 13 | 53.5 |
| 2'F-ANA at 4 5 11 13 | 70.1 |
| 2'F-ANA at 2 3 4 5 6 9 11 12 13 | 97.1 |
| 2'F-ANA at 2 3 4 5 6 7 9 10 12 14 | 49 |
| 2'F-ANA at 1 2 3 6 7 10 12 14 | 50.4 |
| 2'F-ANA at 1 2 3 5 6 9 11 14 | 45.3 |
| 2'F-ANA at 1 5 9 11 12 13 | 69.5 |
| 2'F-ANA at 2 3 4 6 7 8 12 | 1000 |
| 2'F-ANA at 1 5 6 11 14 | 75.8 |
| 2'F-ANA at 1 3 5 6 7 10 11 13 15 | 52.1 |
| 2'F-ANA at 2 7 8 12 14 | 276 |
| 2'F-ANA at 3 4 6 13 | 687 |
| 2'F-ANA at 1 2 3 4 5 6 7 13 14 15 | 49.4 |
| 2'F-ANA at 1 7 8 9 11 12 14 | 103 |
| 2'F-ANA at 1 3 5 6 7 8 9 11 13 15 | 120 |
| 2'F-ANA at 2 3 4 6 9 10 11 12 | 235 |
| 2'F-ANA at 1 2 3 4 9 13 14 | 59.1 |
| 2'F-ANA at 1 2 4 7 11 13 15 | 82.8 |
| 2'F-ANA at 3 4 8 9 11 12 13 14 15 | 284 |
| 2'F-ANA at 2 3 5 10 15 | 56.2 |

Study 3
Target: Ras GTPase-activating protein-binding protein 1, RRM domain (G3BP1, Homo sapiens, UniProt Q13283)
Chain of UniProt Q13283 (whole entry, looked up): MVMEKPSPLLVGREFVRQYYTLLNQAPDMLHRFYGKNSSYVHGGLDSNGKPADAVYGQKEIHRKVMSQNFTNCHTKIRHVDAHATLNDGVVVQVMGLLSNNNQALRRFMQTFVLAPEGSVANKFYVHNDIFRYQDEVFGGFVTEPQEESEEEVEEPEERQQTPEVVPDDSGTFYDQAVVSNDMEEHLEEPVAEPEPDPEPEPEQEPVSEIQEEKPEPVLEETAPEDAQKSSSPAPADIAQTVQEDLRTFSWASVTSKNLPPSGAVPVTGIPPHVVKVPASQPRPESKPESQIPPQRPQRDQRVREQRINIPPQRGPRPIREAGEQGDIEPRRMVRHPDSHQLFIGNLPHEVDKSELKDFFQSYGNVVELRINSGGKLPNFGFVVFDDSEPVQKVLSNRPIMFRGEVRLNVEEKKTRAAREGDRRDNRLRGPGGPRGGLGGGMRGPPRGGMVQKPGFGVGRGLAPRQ
Technique: RNA Bind-n-Seq
Form: RNA
Medium: in vitro
Tested at: 1 µM
Notes: whole 134-nt RNA, ends assumed
Together with: 150 mM KCl
Baseline: input library
Reading: higher = stronger binding
| Strand | log2 enrichment |
| --- | --- |
| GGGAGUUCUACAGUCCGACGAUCCCUGUGCUACACAUCGUAUGUACCGAAUCGGGCCCCCCGGCCCCCCGGGGCCCCCCGGGGAAAGUAUUAUGUUACGCCGUUCGGAUCUGCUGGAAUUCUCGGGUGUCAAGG | -0.528 |
| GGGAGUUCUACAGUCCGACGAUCUAACUUUAGAGGAGGAUCUGAUGGAUAUGGCAGUGGACGUGGAUUUGGGGAUGGCUAUAAUGGGUAUGGAGGAGGACCUUGAGGUGGCAAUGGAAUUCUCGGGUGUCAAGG | -0.419 |
| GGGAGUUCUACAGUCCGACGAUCCACAGACAACACGCACCCACUCAGACACAGAGGGAAGGGGUUGGGAUGGGGACAGGGUGCACAGCAGGGCGGGGUAGGACCCCAGCCCCUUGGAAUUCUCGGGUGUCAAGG | 0.0561 |
| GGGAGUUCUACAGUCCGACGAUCCACAGACAACUCGCACCCACACAGACACAGAGGGAAGGGGUUGGGAUGGGGACAGGGUGCACAGCAGGGCGGGGUAGGACCCCAGCCCCUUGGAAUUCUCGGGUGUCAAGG | 0.161 |
| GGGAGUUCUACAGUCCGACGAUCUUCCUCAAGUCCUGUGCUACACAUCGUAUGUACCGAAUCGGGCGGCGGCGGAAAGUAUUAUGUUACGCCGUUCGGAUCUGCACUUCCAGCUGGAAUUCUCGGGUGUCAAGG | -0.136 |
| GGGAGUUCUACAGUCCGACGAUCUUAAAGAAAUGUCCACAAGUAACUUUGAAUCAUCUCCUGAAGUAGAAGAAAGGCCUGCUGUGUCUUUGACUCUUGAUCAGAGCCAGUCACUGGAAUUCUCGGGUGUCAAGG | -0.156 |
| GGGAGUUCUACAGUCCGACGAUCAGUCCUGUGCUACACAUCGUAUGUACCGAAUCAAAUUUUUAAACCCCCAAAUUUAAAAAAGUAUUAUGUUACGCCGUUCGGAUCUGCACUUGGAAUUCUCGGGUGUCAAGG | -0.406 |
| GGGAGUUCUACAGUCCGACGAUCACCAUGCAGGUGGGCAUCUUUGGGAAGUGGGGCAAGGGGGGGAUAGGGAGGGGGGUAACACUUUGGGAACAGGUGGUCAAAGGUCGUUUCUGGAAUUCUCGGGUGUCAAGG | -0.256 |
| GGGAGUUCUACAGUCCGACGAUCUAACUUUAGAGGAGGAUCUGAUGGAUAUGGCAGUGGACAUGGAUUUGGGGAUGGCUAUAAUGGGUAUGGAGGAGGACCUGGAGGUGGCAAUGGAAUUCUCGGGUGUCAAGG | -0.811 |

Study 4
Target: CCNA2, cyclin fold, Cln2 fusion (human)
Technique: yeast growth competition, sequencing
Medium: yeast
Notes: strong parent motif
Baseline: not given
Reading: higher = stronger binding
Starting sequence: CDC6 docking peptide (human); TLKGRRLVFDNQL; partner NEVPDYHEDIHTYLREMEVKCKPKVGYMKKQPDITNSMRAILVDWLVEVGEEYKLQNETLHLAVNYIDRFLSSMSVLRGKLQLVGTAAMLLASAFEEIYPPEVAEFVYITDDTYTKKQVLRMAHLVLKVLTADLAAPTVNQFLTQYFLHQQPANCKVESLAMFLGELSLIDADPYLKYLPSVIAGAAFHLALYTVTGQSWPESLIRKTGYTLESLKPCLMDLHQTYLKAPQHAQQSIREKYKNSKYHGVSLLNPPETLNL
| Change | normalised enrichment score |
| --- | --- |
| TLKGRRLVFDNQD [L13D] | 2.98 |
| TLFGRRLVFDNQL [K3F] | 1.98 |
| TMKGRRLVFDNQL [L2M] | 2.39 |
| TLKGRRLGFDNQL [V8G] | 1.23 |
| TLKGRRLVFDRQL [N11R] | 2.34 |
| TLKGRRVVFDNQL [L7V] | 0.958 |
| TLKGRRDVFDNQL [L7D] | 0.129 |
| TLKGRRLVFPNQL [D10P] | 1.43 |
| TLKGMRLVFDNQL [R5M] | 1.22 |
| YLKGRRLVFDNQL [T1Y] | 2.67 |
| TLKGRRLVFDQQL [N11Q] | 2.99 |
| TLKGRRLVFDNQS [L13S] | 3.44 |
| LLKGRRLVFDNQL [T1L] | 2.61 |
| TLPGRRLVFDNQL [K3P] | 1.61 |
| WLKGRRLVFDNQL [T1W] | 2.93 |
| TLKGRRCVFDNQL [L7C] | -0.424 |
| TLKGRRLEFDNQL [V8E] | 3.18 |
